Experimental data collected from several papers.
Each numbered part is a random draw from the data of one study; scales do not carry over between parts.

Study 1
Target: Histone acetyltransferase KAT6A, winged helix 2, GST fusion (KAT6A, Homo sapiens, UniProt Q92794, residues 85-181)
Technique: protein binding microarray
Form: double-stranded DNA, one strand shown
Sample: in vitro
Tested at: not given
Notes: 8-mer, flanks averaged, mean of 2 arrays, mostly near background
Reference: not given
Reading: higher = stronger binding
Measurement: E-score
Construct (chain): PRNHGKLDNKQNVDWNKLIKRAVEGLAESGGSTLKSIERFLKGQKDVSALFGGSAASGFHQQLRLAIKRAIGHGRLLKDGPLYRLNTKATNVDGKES
CCGATAAA: -0.00431
AATCGCGC: 0.186
CCCCACAA: 0.0881
GACACATC: -0.0391
ATAGGTCG: -0.0892
GGCATCCA: -0.094
AGGGGAAC: 0.0543
ATCTAACG: -0.0562
CTCATTAA: -0.0571
AGACGCCG: 0.0144
CTTTTCTA: -0.244
CAAAACCA: 0.0605
ACTCCCAA: 0.0198
CCCCAGGC: 0.0859
CGTTCTCC: -0.0417
CTGCATAA: 0.0235
GTCCTAAC: -0.169
ACGGAAAT: -0.0104
ACGGACCC: 0.0755
ATTGTAGC: -0.0549
CTTGCTAC: 0.12
CTAAATTC: 0.0542
CTAGGGAC: -0.0584
CACCCAGC: 0.121
CGAGCCAG: 0.121

Study 2
Target: PABPC1L2, full length, GST fusion (mouse, UniProt A0ABA7IW68)
Technique: RNAcompete
Form: RNA
Sample: in vitro
Tested at: 20 nM
Notes: 7-mer, probes averaged, single round
Reference: mean of 7-mers
Reading: higher = stronger binding
Measurement: 7-mer Z-score
Construct (chain): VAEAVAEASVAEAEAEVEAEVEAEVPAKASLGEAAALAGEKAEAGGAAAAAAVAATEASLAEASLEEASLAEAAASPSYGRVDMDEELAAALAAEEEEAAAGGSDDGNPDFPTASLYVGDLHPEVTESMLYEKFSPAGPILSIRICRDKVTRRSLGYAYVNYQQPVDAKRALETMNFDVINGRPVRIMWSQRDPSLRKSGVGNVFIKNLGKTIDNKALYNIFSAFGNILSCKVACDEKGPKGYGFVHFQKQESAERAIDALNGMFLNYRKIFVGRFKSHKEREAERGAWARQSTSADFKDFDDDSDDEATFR
GACCCGU: -0.306
ACGGACA: 0.303
GACUAGG: -0.0373
UCCCAGC: -0.195
GGAGAUA: 0.095
UAUUCGU: -0.365
GAGUCGA: -0.351
UGUGGAU: 0.158
CUGUGGG: -0.113
UAUGGUG: 0.128
CAGCUAC: -0.206
CGAAGAU: -0.113
GCUAUGA: -0.0863
AAGCCCA: -0.144
CUCUAUC: -0.258
UUGUAAG: -0.0718
UGCCGCU: -0.349
UGUCACU: -0.282
UGGCAAG: 0.00254
GUUUUCC: -0.536
UCGCUCU: -0.38
CAUCGGG: -0.0192
GGCAGAC: 0.459
GAUCAAA: 0.872
GCGGUGU: 0.0787

Study 3
Target: Interferon regulatory factor 7, full length, phosphomimetic (IRF7, Homo sapiens, UniProt Q92985, residues 1-503, S101K/S471D/S472D/S475D/S476D/S477D/S483D/S484D/S487D)
UniProt Q92985, sequence (whole entry, unmodified, looked up): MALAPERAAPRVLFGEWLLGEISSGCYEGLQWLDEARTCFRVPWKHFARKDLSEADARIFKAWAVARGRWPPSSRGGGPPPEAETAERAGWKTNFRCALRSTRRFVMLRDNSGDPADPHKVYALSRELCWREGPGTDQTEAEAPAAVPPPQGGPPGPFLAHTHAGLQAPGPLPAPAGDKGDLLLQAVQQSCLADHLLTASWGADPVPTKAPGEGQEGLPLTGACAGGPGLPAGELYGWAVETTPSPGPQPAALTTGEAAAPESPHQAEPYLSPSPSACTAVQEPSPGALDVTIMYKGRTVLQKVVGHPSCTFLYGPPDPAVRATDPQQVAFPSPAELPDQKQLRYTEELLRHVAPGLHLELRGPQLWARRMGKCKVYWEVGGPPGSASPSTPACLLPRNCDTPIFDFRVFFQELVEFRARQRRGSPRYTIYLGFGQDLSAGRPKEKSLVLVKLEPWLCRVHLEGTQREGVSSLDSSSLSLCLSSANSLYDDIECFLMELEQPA
Technique: protein-binding microarray
Form: double-stranded DNA, one strand shown
Sample: in vitro
Tested at: 250 nM
Notes: 60-bp whole probe
Together with: salmon DNA 0.4 mg/ml
Reference: random background probes
Reading: higher = stronger binding
Measurement: log fluorescence
All sequences stand within: GCCTAGCAC … GTCTTGATTCGCTTGACGCTGCTG
GGCTGTTTGGCCCTGAACCTGTGCTAG: -1.08 z-score
GGCGGTATCCTTTTCCTGACGTGCTAG: 0.38 z-score
GGAGGAGCGGGACTGCCACCGTGCTAG: -1.2 z-score
TTAGGTATGGGTCTCGGTTAGTGCTAG: 0.925 z-score
GACGGTTTCCTTTTCATGACGTGCTAG: 5.63 z-score
CACGATCTCAGTCTCGAGACGTGCTAG: 0.678 z-score
GACGGACTGGGGTTTCGGTACGTGCTA: 1.77 z-score
CCAGACTTGATTTTGGTCTTGTGCTAG: -0.151 z-score
TTAGATCTCTGTTTCGATTAGTGCTAG: 3.99 z-score
TCTTCCTTTACTTTCTTTTTGTGCTAG: 2.93 z-score
TCAGTTTTAAATAGGGCACTGTGCTAG: 0.67 z-score
TTAGATATCGAGTATCGATTAGTGCTA: 0.678 z-score
TTAGGTATCCTTCTGCTTTAGTGCTAG: 0.291 z-score
TCATCTCTCATGTTACAACTGTGCTAG: 0.87 z-score
GACGGTTTCGGTATCGGTACGTGCTAG: 10.8 z-score
TTAGTTTTCGGGTTTCGATTAGTGCTA: 10 z-score
CTGGAGGTTGGGCAAGGCCCGTGCTAG: -1.13 z-score
ACTTAAACTAGAAACTGACTTGTGCTA: 0.588 z-score
GACGGTATCTTACTGCTGACGTGCTAG: -0.416 z-score
GACGGTTCTGGTTTCGGGACGTGCTAG: 4.29 z-score
GACGATCTCAGAATGGAGACGTGCTAG: -0.168 z-score
CACTAGTTTCTTTTCTTTTCGTGCTAG: 6.52 z-score
TCATCTGTCATTTTCTCACTGTGCTAG: 0.668 z-score
GACGGTCTCCTACTGCTGCCGTGCTAG: -0.366 z-score
ATCATTTTAGTTTTCATTATGTGCTAG: 1.72 z-score

Study 4
Target: RNA binding protein fox-1 homolog 2, RRM domain, GST-SBP tag (RBFOX2, Homo sapiens, UniProt O43251-10, residues 100-194)
Technique: RNA Bind-n-Seq
Form: RNA
Sample: in vitro
Tested at: 365 nM
Notes: natural RNA segment, single round, ends assumed
Reference: no-protein control
Reading: higher = stronger binding
Measurement: RBNS enrichment (R)
Target sequence (chain): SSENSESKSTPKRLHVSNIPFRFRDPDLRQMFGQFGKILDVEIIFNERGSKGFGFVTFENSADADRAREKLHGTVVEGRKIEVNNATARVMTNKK
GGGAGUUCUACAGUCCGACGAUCUGCAGCCCGGCUGUGGGAAUGAAUCAUUGGAGUAAUAAACUACAGUGGUUGAUCCACAUGUGCUCGCAACUCUGUUUUGUACAGCGCACGCUUUCCUGGUUUUCAGGGUAUGGAAUUCUCGGGUGCCAA: 0.385
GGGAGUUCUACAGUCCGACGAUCUUUGUGAGUUCAGCACAGGGCCCAGAAGCUGCUGGUUUUAAAUAUUUACUUUCCCAGGAGGUGGGUUUCUUCAGGUGUUUGUUUAAAGAGGGCUGUCACAGGUGAAUGGUUGGAAUUCUCGGGUGCCAA: 1.49
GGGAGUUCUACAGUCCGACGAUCGUGUGCCUCCCCUGCCCUCGGCCCCUAGCUGAUUUCUCCCCUAGAUAUGGUGCACUGUUUCCCUGGGUGGCCUUCUUGUGGCCCCAUGGGCCACAGGGUGCAGGAACGUAUGGAAUUCUCGGGUGCCAA: 0.403
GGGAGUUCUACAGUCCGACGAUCCCUGGACAUGAAUGUAUUGUACACUGACGCGUCCCCACUCCUGUACAGCUGCUUUGUUUCUUUGCAAUGCAUUGUAUGGCUUUAUAAAUGAUAAAGUUAAAGAAAACUCUUGGAAUUCUCGGGUGCCAA: 0.652
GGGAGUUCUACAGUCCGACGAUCAGCAUCUCAGAUGGGGAAGGCACCUUCUUCCUCGCCUCUCCAGAUUGUCCUGGAACCUCCAGGAUCCUUGACUGAGGGCGUUGGGAUGGCUUGUAGGAUUUUUAAGAGAGUGGAAUUCUCGGGUGCCAA: 0.759
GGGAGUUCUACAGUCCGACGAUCAGUGCCCUGUGGUGGUGGACACAAUGCAGAACCAGAGCAGCCAGCUCUACGCGGCCCUGCCUGAGAGGCUCUACGUGAUACAGGAGGGCAGGAUCUGCUACAAGGGUAAAUGGAAUUCUCGGGUGCCAA: 0.333
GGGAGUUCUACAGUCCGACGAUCAAAAAGCACUUUUUCAAUUGUGCUGAGUUAGACAUCUGUGAGUUAGACUAUGGUGUCAGUGAUUUUUGCAGAACACGUGCACAACCCUGAGGUAUGUUUAAUCUAGGCAGUGGAAUUCUCGGGUGCCAA: 0.529
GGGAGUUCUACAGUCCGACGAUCUCUUCAUGUUUUAACAAAAAAGAAAAAAAGAAAAAAAAUCCCAUCCCUUUUGUACAUACUCCUGUAAAUUGUUUUAAAUACUUGAGCCUUUUCUUGGAGGGGGAGGGAAGUGGAAUUCUCGGGUGCCAA: 0.444
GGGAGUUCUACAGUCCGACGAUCCACAUGUAGUCCUGAGUCCUUCCUGCCGGAGAUGCCACCGGUUGCACAGCCCUCAAGAGGCCCCUUUGGAUAGUGGCCCUGCACGAGACUGUGCCUUGAUCAUUUCGGUGUGGAAUUCUCGGGUGCCAA: 0.325
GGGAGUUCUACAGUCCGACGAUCGCCUCACUUUUAAUGAACAAAUGGCCUUUAUUAAAAACUGAGUGACUCUAUAUAGCUGAUCAGUUUUUUCACCUGGAAGCAUUUGUUUCUACUUUGAUAUGACUGUUUUUUGGAAUUCUCGGGUGCCAA: 0.408
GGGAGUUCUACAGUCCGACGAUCGCAUCCAAGGUAUACAUACAUAUUCAUCGAUGUUUCGUGCUUCUCCUUAUGAAACUCCAGCUAUGUAAUAAAAAACUAUACUCUGUGUUCUGUUAAUGCCUCUGAGUGUCUGGAAUUCUCGGGUGCCAA: 0.681
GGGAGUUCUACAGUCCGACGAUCUAUCAUCUUCAGAGAAAAAAUAAAGCAAGAAAUACUAACAUCAAAAGGACAGGUAUGAUGAUGCGAUAAUAAUAAACAUCUGCGUUUGUCUCUUCACUAAGAGUAAACUGUGGAAUUCUCGGGUGCCAA: 0.394

Excerpt of the above (study 3):
CACTAGTTTCTTTTCTTTTCGTGCTAG: 6.52 z-score
ACTTAAACTAGAAACTGACTTGTGCTA: 0.588 z-score
ATCATTTTAGTTTTCATTATGTGCTAG: 1.72 z-score
GGCGGTATCCTTTTCCTGACGTGCTAG: 0.38 z-score
CTGGAGGTTGGGCAAGGCCCGTGCTAG: -1.13 z-score
TTAGATATCGAGTATCGATTAGTGCTA: 0.678 z-score
TCATCTCTCATGTTACAACTGTGCTAG: 0.87 z-score
TTAGGTATGGGTCTCGGTTAGTGCTAG: 0.925 z-score
